Measured values pooled from the literature.
Numbered parts are unrelated; each lists some results of a single study.

Study 1
Target: RNA binding protein fox-1 homolog 2, RRM domain, GST-SBP tag (RBFOX2, Homo sapiens, UniProt O43251-10, residues 100-194)
Technique: RNA Bind-n-Seq
Form: RNA
Matrix: in vitro
Concentration: 365 nM
Notes: natural RNA segment, single round, ends assumed
Baseline: no-protein control
Reading: higher = stronger binding
Shared flanks, not repeated: GGGAGUUCUACAGUCCGACGAUC … UGGAAUUCUCGGGUGCCAA
Residues (chain): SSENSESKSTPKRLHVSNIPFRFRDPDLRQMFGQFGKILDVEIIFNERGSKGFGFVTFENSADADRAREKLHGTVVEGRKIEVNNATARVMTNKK
`AUCAUUAUUGGGUCUCUGCCUUAAAACACAUCCAAAUUUAUAUUAGAAAAAAAAAAAAACUGUAUCUUUUUCUUUGGUCACUAAGAUCCCCUGACCAUGUCUUUAUGGCC`: “RBNS enrichment (R)” 0.852.
Under “RBNS enrichment (R)”, `CCAAGAUACAGCUCAGGCCUUGGCUUCAGAGGGUGCAAGCCCCAAGUCUUGGCAUCUUCCACGUAGUGUUGAGCCUGCAGGUGCACAGAAGUCAAGAACUGAGGUUUGGG` is recorded as 0.462.
`CUUGCUUCCUCUUUAACCCGGAGAGGGACUCCCCUGUGGCUAUCCCCCAUCUCUACCAACAAAGUGUAUUCUUCAUAGAUAUUAGAUAAAUCUUCCAGGCUUCAUCAUCA`: “RBNS enrichment (R)” 0.863.
For `UUCUCAGAGAAACUGCCGAAAGUUGCAUUAAAAAAAAUAAAAAGUACAGAAGAAAUAGUUGCCACUGUCUAGGACAGUGCUGAAGCUAGGUGGUUAAACGGGUAACAGAA`, “RBNS enrichment (R)” read 1.39.
For `AAUUGUUUAUUCCCAAAUUGAAAUACACAAGAAAAUAUAAUUUAAGUCUGAAAUUUAACGCCUACUUCCUAUAACACAUUUUAGGAUGCUUUCUGAUGAUUUAAACUUUG`, “RBNS enrichment (R)” read 0.547.
`AUGCAGUCCUCCCCUCCCUGGUCUCCUGCUUCAGCUCUGUACAACGAGGGCAAAGAUGCUAAAUCUUGCUUUGCAUUCAGUAAAGUGUCAAGUGAUUAAGUGUGUAUUUG` — result for “RBNS enrichment (R)”: 0.232.
For `AAUAUGAAUGGAUUAAAUGUUAAAGCUUUGGUGCCUGGAAACAAUAUCAAGUAACAAUAUGAUUAUUAUUUUUUUAUUCCCCCAAAGCGGGCUUGCUGCUUCACCCUUGG`, “RBNS enrichment (R)” read 2.22.
For `AAGACUUUUAUUUAAAACAGCUUUCAUAUUAAACUGCUGCUGUAUUAAACAGACCUUAGUUUCCAUAUAGAAACUUUAUAACUGAAACACCCUUAAGUAUUUAUAUUCUU`, “RBNS enrichment (R)” read 0.715.

Study 2
Target: RING finger protein unkempt homolog, zinc fingers 1-6, GST-SBP tag (UNK, Homo sapiens, UniProt Q9C0B0, residues 30-357)
Technique: RNA Bind-n-Seq
Form: RNA
Matrix: in vitro
Concentration: not given
Notes: RNA with constant flanks, ends assumed
Baseline: input RNA pool
Reading: higher = stronger binding
Shared flanks, not repeated: GGGAGUUCUACAGUCCGACGAUC … CAACAGAGGAUUGAGCAUCA
Target sequence (chain): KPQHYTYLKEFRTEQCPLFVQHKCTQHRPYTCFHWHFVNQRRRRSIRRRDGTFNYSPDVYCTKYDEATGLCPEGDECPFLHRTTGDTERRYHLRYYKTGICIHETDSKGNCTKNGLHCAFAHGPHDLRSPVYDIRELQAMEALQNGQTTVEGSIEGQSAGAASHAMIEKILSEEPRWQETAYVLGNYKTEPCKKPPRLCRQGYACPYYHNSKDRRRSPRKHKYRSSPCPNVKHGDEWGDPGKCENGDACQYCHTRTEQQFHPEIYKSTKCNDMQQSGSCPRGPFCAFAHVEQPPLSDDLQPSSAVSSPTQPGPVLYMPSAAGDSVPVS
`AUAAAGGAGGAAGAAGACGACAUUUCUGACAAGGGCAGUGAUUCUGAAGAGGAAGAAACCAACCGAGAUUCUCAGAGUGAGAAAGAAGAUGGUAGUGACAGGGAGUCUGAUAGAGAGCAA` has a bound/input enrichment of 0.629 ratio.
With `AGAAAUGGGCCGCUCCAAUUCUAGAUCACAUUCUUCAAGAUCCAAGUCUAGAUCACAGUCCCGUUCCCGAUCAAGAUCAAGAUCACAUUCUAGAAAGAAGAGAUACAGUUCUAGGUCUCG` the bound/input enrichment was 0.159 ratio.
The bound/input enrichment of `GAUUCUACCUCUGCAGUCAAAGAGAAAACAGCAACUUGCCACAGUUCCUCUUCUCCACCAACCGAUGCAGCAUCCGCAGAGCCCUAUGGCUUCCGUGCCUCAGUGUUAUUCGAUACAAUG` is reported as 0.138 ratio.
With `GCAGAGAUGGAGAAUAUUAAGGCGAUUGCCACAGUCUCUGAGAACACCAAGCAAGAAGCUACCGAUGAAGUGAAAAGACAGUGGAGAGAAGAAGUUGCUUCACUUCAGGCUGUUAUGAAA` the bound/input enrichment was 0.0665 ratio.
With `GACCCACAGUGGUCUGAGGAACAGCUGAUUGCUGCAAAAUUUUGCUUUGCUGGACUUCUUACCGGCCAGACUGAAGUGGAUAUCAUGAGUCAUGCUACACAGGCUAUAUUUGAAAUACUG` the bound/input enrichment was 0.186 ratio.
With `CGAGCUGGAUCCAGAGUUGCAUAUAGACCAAUUUCUGCAUCAGUGUUAUCUCGGCCAGAGACCCGGACUGGAGAGGGCUCUACAGUUUUUAAUGGGGCCCAGAAUGGUGUGUGUCAGCUG` the bound/input enrichment was 0.272 ratio.
`CCUGCGAUUGUUCAUAUAAACCACCAGCCAUACUUGGAAAGAGGAGAUGGUCCAAUUUGUCCCGUGCUGGCUCCUACCAGAGAGCUUGCGCAGCAGGUGCAGCAGGUGGCUGACGAUUAU` has a bound/input enrichment of 0.131 ratio.
With `UUGGAUUCAUUAGCAGAAAGUCCUGAAUCAGAUUUUAUGUCUGCUGUGAAUGAGUUUGUAACCGAAGAAAAUUUGUCGUCUCCUAAUCCUAUAAGUGAUCCACAAAGCCCAGAAAUGAUG` the bound/input enrichment was 0.305 ratio.

Study 3
Target: Centromere-binding protein 1, full length, His-tagged (CBF1, Saccharomyces cerevisiae, UniProt P17106, residues 1-351)
Chain of UniProt P17106 (whole entry, looked up): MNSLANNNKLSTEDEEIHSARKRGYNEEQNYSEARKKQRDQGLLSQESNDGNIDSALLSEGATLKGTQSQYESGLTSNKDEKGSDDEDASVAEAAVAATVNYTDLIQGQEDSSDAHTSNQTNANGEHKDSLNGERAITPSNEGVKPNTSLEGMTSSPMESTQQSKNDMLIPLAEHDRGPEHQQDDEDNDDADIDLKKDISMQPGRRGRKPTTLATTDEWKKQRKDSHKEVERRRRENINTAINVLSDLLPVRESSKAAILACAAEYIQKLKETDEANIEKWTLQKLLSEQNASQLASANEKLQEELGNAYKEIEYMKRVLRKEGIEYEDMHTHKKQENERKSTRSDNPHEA
Technique: competition protein-binding microarray
Form: double-stranded DNA, one strand shown
Matrix: in vitro
Concentration: 2 µM
Notes: whole 60-bp probe, lowest competitor level
Together with: Pho4 competitor, 0.05 µM
Reading: higher = stronger binding
Shared flanks, not repeated: … GTCTTGATTCGCTTGACGCTGCTG
The fluorescence intensity of `ACAAAGGCACCAAGCGGCGTGGGACGCTTTCTTGTG` is reported as 57.8 a.u.
`GTCTTGTCTCATTGACCGGTGGGTGTCCCCACTTCA` has a fluorescence intensity of 79.8 a.u.
`TTTTGAATCCCGTTACACGTGGAATCTTTTTGAATT` has a fluorescence intensity of 506 a.u.
`ATCCAATAAGAGGGGCGCGTGTCGGCAGAGATAAGC` gave a fluorescence intensity of 66.9 a.u.
For `CTACGGTTCCTGCCGCTCGTGGGTACCCCAAGCAAA`, the fluorescence intensity was 49.2 a.u.
For `AAAGCGGTAATTTGCTTAGTGGGTGCAGATATCTAT`, the fluorescence intensity was 71.5 a.u.
For `CGGGGTTAAGTTTGTCCAGTGGGTGGCTTGCAGCAG`, the fluorescence intensity was 74.1 a.u.
The fluorescence intensity of `CTTTCCCGATCTTGCACGGTGGGTGTAGCACATTTG` is reported as 64.5 a.u.
With `CAAGCGACTTACACAGACATGACAATTGCTCCAATT` the fluorescence intensity was 66.3 a.u.
`GTTGAAACTGTCAACATCGTGTAGGACATTGGATAA` has a fluorescence intensity of 72.2 a.u.
`CACAGTGGTAACGGCACCGTGGCCGGGAAACGGTTC` has a fluorescence intensity of 55.3 a.u.
For `TCGACGGCGAAGAAGCACATGCCTTCACCGTCCGCA`, the fluorescence intensity was 77.1 a.u.
`TCTCTCGCGTTGCTTCTTGTGACGGCAGTTGTATAT` gave a fluorescence intensity of 96.5 a.u.
`GACGGAACCGTTCCGCTCGTGGCCGATTCAATGTGT` has a fluorescence intensity of 75.9 a.u.
For `CAACTACGCTGGATCGACGTGGGACTGGCAGGGAAG`, the fluorescence intensity was 69.3 a.u.
`CGTCCTAGCGATTGACACGTGGGTGCCATGAGGAAG` gave a fluorescence intensity of 871 a.u.
With `ATTTGACCATTATTCCACGTGTTGAGTTCTCAGAAT` the fluorescence intensity was 747 a.u.
For `AAAAACTCCAAGGAACGCGTGTCGGCCGTAATCGTT`, the fluorescence intensity was 62.8 a.u.

Study 4
Target: Prothrombin, mature alpha-thrombin (F2, Homo sapiens, UniProt P00734)
Technique: aptamer microarray, sandwich
Form: DNA with 2'F-ANA
Matrix: in vitro
Concentration: 200 nM
Notes: whole 15-mer aptamer, many near background
Together with: Cy3 exosite-II aptamer, 400 nM
Reading: higher = stronger binding
Sequence: GGTTGGTGTGGTTGG
`2'F-ANA at 3 6 7 9 10 12 13 15`: “mean fluorescence intensity” 446 a.u.
For `2'F-ANA at 1 2 7 9 10 12 14 15`, “mean fluorescence intensity” read 65.7 a.u.
For `2'F-ANA at 4 5 6 7 8 10 13 14`, “mean fluorescence intensity” read 46.3 a.u.
`2'F-ANA at 1 4 7 8 9 11 13` — result for “mean fluorescence intensity”: 104 a.u.
`2'F-ANA at 2 5 7 8 9 10 13 14`: “mean fluorescence intensity” 47.3 a.u.
`2'F-ANA at 4 5 6 8 9 13 15`: “mean fluorescence intensity” 72.8 a.u.
`2'F-ANA at 2 4 5 6 9 11 14`: “mean fluorescence intensity” 49 a.u.
For `2'F-ANA at 1 7 9 10 11 12 15`, “mean fluorescence intensity” read 64.3 a.u.
`2'F-ANA at 2 4 7 9 10 13`: “mean fluorescence intensity” 88.3 a.u.
`2'F-ANA at 3 4 5 6`: “mean fluorescence intensity” 90.5 a.u.
For `2'F-ANA at 1 2 3 4 5 10 11 12 14 15`, “mean fluorescence intensity” read 52.8 a.u.
Under “mean fluorescence intensity”, `2'F-ANA at 2 3 4 6 7 8 9 10 13 15` is recorded as 211 a.u.
`2'F-ANA at 2 4 6 7 11 12 14`: “mean fluorescence intensity” 131 a.u.
`2'F-ANA at 1 5 7 8 10 14`: “mean fluorescence intensity” 46.7 a.u.
For `2'F-ANA at 1 2 4 8 9 12 13 14 15`, “mean fluorescence intensity” read 56.5 a.u.
`2'F-ANA at 1 2 4 5 6 8 9 11 12 13 14` — result for “mean fluorescence intensity”: 48.7 a.u.
Under “mean fluorescence intensity”, `2'F-ANA at 1 2 3 4 5 7 9 10 11 15` is recorded as 49.2 a.u.
`2'F-ANA at 2 3 6 9 10`: “mean fluorescence intensity” 346 a.u.
For `2'F-ANA at 3 4 6 9 10 12 15`, “mean fluorescence intensity” read 303 a.u.
`2'F-ANA at 1 6 9 12 14 15`: “mean fluorescence intensity” 66.1 a.u.
`2'F-ANA at 2 3 6 8 13 14 15`: “mean fluorescence intensity” 369 a.u.
For `2'F-ANA at 2 3 4 6 7 8 10 11 13 14`, “mean fluorescence intensity” read 153 a.u.

Excerpt of the above (study 3):
For `CGGGGTTAAGTTTGTCCAGTGGGTGGCTTGCAGCAG`, the fluorescence intensity was 74.1 a.u.
The fluorescence intensity of `CTTTCCCGATCTTGCACGGTGGGTGTAGCACATTTG` is reported as 64.5 a.u.
With `CAAGCGACTTACACAGACATGACAATTGCTCCAATT` the fluorescence intensity was 66.3 a.u.
`GTTGAAACTGTCAACATCGTGTAGGACATTGGATAA` has a fluorescence intensity of 72.2 a.u.
`CACAGTGGTAACGGCACCGTGGCCGGGAAACGGTTC` has a fluorescence intensity of 55.3 a.u.
